Published values from different studies.
Lines come from different studies, so protocols differ. Numbers after ± are the reported error.
BRD4: Bromodomain-containing protein 4 (BRD4, Homo sapiens, UniProt O60885)
BRD4 BD1: Bromodomain-containing protein 4, BD1 (BRD4, Homo sapiens, UniProt O60885)
UCHL1: Ubiquitin carboxyl-terminal hydrolase isozyme L1 (UCHL1, Homo sapiens, UniProt P09936)
Sequence of UniProt P09936 (whole entry, looked up): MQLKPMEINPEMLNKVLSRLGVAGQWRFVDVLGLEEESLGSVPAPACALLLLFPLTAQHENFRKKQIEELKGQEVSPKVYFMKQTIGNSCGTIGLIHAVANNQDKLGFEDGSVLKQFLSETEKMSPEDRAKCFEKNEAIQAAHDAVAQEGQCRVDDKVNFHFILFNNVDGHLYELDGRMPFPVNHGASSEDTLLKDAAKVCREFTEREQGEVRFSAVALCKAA
BRD4 BD2: Bromodomain-containing protein 4, BD2 (BRD4, Homo sapiens, UniProt O60885)

SMILES	target	test	conditions	how to read	endpoint	value
COc1ccc2c(-c3nc(-c4c(C)[nH]c5ccc(OC)cc45)cs3)c[nH]c2c1	BRD4	thermal shift	25 µM	higher = stronger binding	ΔTm	12.5 °C
COc1cc(-c2cc(C(C)=O)n3ccccc23)cc(OC)c1Cn1ccnc1	BRD4 BD1		1 µM		inhibition	2.15%
C=CC(=O)Nc1ccc(C)cc1S(=O)(=O)N1CCOCC1	UCHL1	covalent, intact protein LC-MS	12.5 µM		labelling	10.8%
Cn1cc(C(=O)Nc2cccc(C(=O)O)c2)ccc1=O	BRD4 BD1	binding, BROMOscan competition binding		relative to: Kd CBP over Kd BRD4 bromodomain 1	selectivity ratio	0.1
CC(=O)N[C@H](C(=O)N1C[C@H](O)C[C@H]1C(=O)NCc1ccc(-c2scnc2C)cc1)C(C)(C)SCCCCCCNC(=O)C[C@@H]1N=C(c2ccc(Cl)cc2)c2c(sc(C)c2C)-n2c(C)nnc21	BRD4 BD2	ITC	25 °C, binary		−TΔS	0 ± 1 kcal/mol
CCn1c2c(c(=O)[nH]c1=O)C1C(=C(C)N2)C(=O)NCc2ccccc2OCCCOc2ccccc21 (stereo not shown)	BRD4 BD1	fluorescence polarization	concentration not given		binding affinity	inactive
Cc1ccc(C2C(C#N)=C(N)N(c3cccnc3Cl)C3=C2C(=O)CCC3)s1 (stereo not shown)	UCHL1	covalent, intact protein LC-MS	12.5 µM		labelling	12.6%
COc1cc(-c2cc(C(C)=O)n3ccccc23)c(OC)cc1Cn1ccnc1	BRD4 BD2		1 µM		inhibition	-1.54%
CCc1cnn2c(NCc3ccc[n+]([O-])c3)cc(N3CCCC[C@H]3CCO)nc12	BRD4	19F NMR, refers to: tyrosine 97	47 µM	relative to: free protein	chemical shift change	-0.183 ppm
Cc1[nH]c2ccccc2c1-c1csc(-c2c[nH]c3ccccc23)n1	BRD4	thermal shift	25 µM	higher = stronger binding	ΔTm	9.5 °C
Cn1nnc2ccc(NC(=O)c3cccc(C(=O)O)c3)cc21	BRD4 BD1	binding, BROMOscan competition binding		relative to: Kd CBP over Kd BRD4 bromodomain 1	selectivity ratio	2.5
CC(=O)Nc1ccc(O)cc1	BRD4	19F NMR, refers to: tyrosine 118	375 µM	relative to: free protein	chemical shift change	-0.05 ppm
Cc1cc2c(cc1N1C(=O)c3cccc4c(Cl)ccc(c34)C1=O)n(C)c(=O)n2C	BRD4 BD2		10 µM		delta Tm	1.3 °C

For quick reference, copied from above:
SMILES	target	test	conditions	how to read	endpoint	value
Cn1nnc2ccc(NC(=O)c3cccc(C(=O)O)c3)cc21	BRD4 BD1	binding, BROMOscan competition binding		relative to: Kd CBP over Kd BRD4 bromodomain 1	selectivity ratio	2.5
CC(=O)Nc1ccc(O)cc1	BRD4	19F NMR, refers to: tyrosine 118	375 µM	relative to: free protein	chemical shift change	-0.05 ppm
